Assay results gathered from unrelated publications.
Cell line: DU-145

With `COc1ccc(C([O-])=CC(=O)c2ccc(C(C)(C)C)cc2)cc1.[Ru+2].c1ccc(-c2cccc(-c3ccccn3)n2)nc1.c1cnccn1` the phototoxicity index was 9.3 (reference: dark IC50 over light IC50).
With `CCCC(CCC)C(=O)OCc1cn(-c2cc3ccccc3oc2=O)nn1` the growth percentage was 106% (NCI60 single-dose screen; 10 µM).
The IC50 of `CNS(=O)(=O)Nc1nccc(Cc2c(C)c3ccc(Oc4ncccc4F)cc3oc2=O)c1F` is reported as > 1000 nM (cell viability; 7 days).
The GI50 of `CCN(C(=O)c1cc(F)ccc1Oc1nncnc1N1CCC2(C1)CN([C@H](CCCN(C)CCOC)C(C)C)C2)C(C)C` is reported as > 10000 nM (cell growth or viability; 72 h).
`O=C(Nc1nnc2c1c(-c1ccc(Cl)cc1)nc1sc(=Cc3ccco3)c(=O)n12)c1ccccc1` (mixture of isomers) gave a cell growth of 57.2% (SRB; 10 µM, NCI60 single-dose screen, prostate cancer; reference: untreated).
`COc1ccc(C(O)=CC(=O)c2ccc(C(C)(C)C)cc2)cc1.[Ru+2].c1ccc(-c2ccnc3c2ccc2c(-c4ccccc4)ccnc23)cc1.c1ccc(-c2ccnc3c2ccc2c(-c4ccccc4)ccnc23)cc1` gave an IC50 of 9900 nM (cytotoxicity; dark).
`CC(C)c1ccc(N(C)c2ccc3c(c2)OCC[C@H]3CNc2cnccc2C(=O)O)cc1` has an IC50 of 17.7 nM (cell viability, CellTiter-Glo; 7 days).
For `C1=[N+]2CCCC[N+]3=Cc4ccc5[n]4[Au-]23[n]2c1ccc2-c1nc2ccccc2nc1-5.F[P-](F)(F)(F)(F)F`, the TGI was 4 -log M (NCI60 five-dose screen).
With `Cc1ccc([N+](=O)[O-])cc1S(=O)(=O)N(C)/N=C/c1cnc2ccc(Br)cn12` the IC50 was 1 nM (cell growth or viability).
`CN(C)CCN1CCN(c2ccc3nc(-c4ccc5nc(-c6ccc(C(F)(F)F)cc6)[nH]c5c4)[nH]c3c2)CC1` has a growth percent of 45% (SRB; 10 µM, 48 h).

Some of these lines once more:
`O=C(Nc1nnc2c1c(-c1ccc(Cl)cc1)nc1sc(=Cc3ccco3)c(=O)n12)c1ccccc1` (mixture of isomers) gave a cell growth of 57.2% (SRB; 10 µM, NCI60 single-dose screen, prostate cancer; reference: untreated).
`COc1ccc(C(O)=CC(=O)c2ccc(C(C)(C)C)cc2)cc1.[Ru+2].c1ccc(-c2ccnc3c2ccc2c(-c4ccccc4)ccnc23)cc1.c1ccc(-c2ccnc3c2ccc2c(-c4ccccc4)ccnc23)cc1` gave an IC50 of 9900 nM (cytotoxicity; dark).
